Measurements from different studies.
Every numbered part comes from another study and shows a few of its results, in no order. Substitutions count along the parent as printed.

Series 1
Target: CREB3L3, bZIP domain (human)
Method: DHFR protein complementation
Matrix: yeast
Notes: single substitutions, most at no-binding floor
Relative to: wild-type JUN-FOS pair
Reading: higher = stronger binding
Endpoint: binding fitness
Starting sequence: JUN, bZIP domain (human); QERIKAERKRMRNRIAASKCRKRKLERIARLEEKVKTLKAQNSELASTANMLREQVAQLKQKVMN; partner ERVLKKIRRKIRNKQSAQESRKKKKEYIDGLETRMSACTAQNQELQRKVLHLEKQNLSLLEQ
A29W: -1.37 natural log
A40N: -1.51 natural log
K36G: -1.37 natural log
L45Q: -1.5 natural log
T37A: -1.28 natural log
Q41T: -1.38 natural log
T37Y: -1.4 natural log
L38T: -1.49 natural log
L52S: -1.51 natural log
M51E: -1.26 natural log
Q41A: -1.31 natural log
T37V: -1.2 natural log
M51K: -1.5 natural log
S43V: -1.45 natural log
V35C: -1.34 natural log
L38C: -1.5 natural log
S43P: -1.53 natural log
L59C: -1.34 natural log
V35K: -1.48 natural log
V35A: -1.47 natural log
E54V: -1.52 natural log
K39R: -1.35 natural log
R30M: -1.29 natural log
R30Y: -1.46 natural log
T37Q: -1.1 natural log

Series 2
Target: Prothrombin, mature alpha-thrombin (F2, Homo sapiens, UniProt P00734)
Method: aptamer microarray, sandwich
Form: DNA with 2'F-ANA
Matrix: in vitro
Tested at: 200 nM
Notes: whole 15-mer aptamer, many near background
Together with: Cy3 exosite-II aptamer, 400 nM
Reading: higher = stronger binding
Endpoint: mean fluorescence intensity
Sequence: GGTTGGTGTGGTTGG
2'F-ANA at 2 3 5 8 9 12 13 14: 203 a.u.
2'F-ANA at 2 3 4 5 9 13 14 15: 109 a.u.
2'F-ANA at 4 6 8 9 10 11 12 15: 90.1 a.u.
2'F-ANA at 4 5 7 10 11 12: 77.3 a.u.
2'F-ANA at 1 2 6 8 10 14 15: 50.7 a.u.
2'F-ANA at 1 3 7 8 9 10 14 15: 61.5 a.u.
2'F-ANA at 1 2 4 6 7 8 9 11 12: 238 a.u.
2'F-ANA at 3 8 9 10 12: 707 a.u.
2'F-ANA at 1 2 6 7 10 11 12 14 15: 52.3 a.u.
2'F-ANA at 3 5 8 9 11 13 14 15: 68.9 a.u.
2'F-ANA at 2 3 7 10 14: 393 a.u.
2'F-ANA at 1 2 3 4 7 8 10 12 15: 76.9 a.u.
2'F-ANA at 2 3 4 8 9 15: 641 a.u.
2'F-ANA at 2 4 7 8 10 11 14 15: 61.5 a.u.
2'F-ANA at 2 4 7 8 9 10 11 12 13: 105 a.u.
2'F-ANA at 1 4 5 7 9 12 13 14 15: 61.5 a.u.

Series 3
Target: CCNE2, cyclin fold, Cln2 fusion (human)
Method: yeast growth competition, sequencing
Matrix: yeast
Notes: strong parent motif
Relative to: not given
Reading: higher = stronger binding
Endpoint: normalised enrichment score
Starting sequence: CDKN1B docking peptide (human); PSACRNLFGPVDH
H13E: 0.828
R5K F8L: -0.143
R5V: 0.403
V11E: 1.5
V11T: 0.788
A3L: 0.749
R5N: 0.236
H13N: 0.622
P10V: 1.42
F8S: 0.688
C4H: 0.136
F8G: -0.138
P1W: 1.17
A3D: -0.0549
N6K: 2.33
F8I: 0.474
P10A: 1.12
A3Q: 0.561
S2E: -0.0902
L7W: 0.0941
R5G: -0.388
S2L: 0.843
R5H: 0.312
P10S: 1.64
P1C: 0.956

Series 4
Target: UBE2V1 UBC core domain (UniProt Q13404)
Chain of UniProt Q13404 (whole entry, looked up): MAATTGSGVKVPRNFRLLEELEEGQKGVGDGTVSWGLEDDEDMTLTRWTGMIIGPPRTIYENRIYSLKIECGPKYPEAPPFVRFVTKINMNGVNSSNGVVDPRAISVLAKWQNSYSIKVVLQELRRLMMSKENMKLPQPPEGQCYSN
Method: yeast two-hybrid
Matrix: yeast
Notes: mostly zero background
Relative to: not given
Reading: higher = stronger interaction
Endpoint: lacZ reporter activity
B1: RFWD3 RING domain (UniProt Q6PCD5); chain ASMDEEEGDTCTICLEQWTNAGDHRLSALRCGHLFGYRCISTWLKGQVRKCPQCNKKARHSDIVV
B2: DZIP3 RING domain (UniProt Q86Y13); chain PDEEEEEEEPCVICHENLSPENLSVLPCAHKFHAQCIRPWLMQQGTCPTCRLHVLLPEEFP
B3: SH3RF1 RING domain (UniProt Q7Z6J0); chain DESALLDLLECPVCLERLDASAKVLPCQHTFCKRCLLGIVGSRNELRCPECRTLVGSGVEEL
B4: DTX2 RING domain (UniProt Q86UW9); chain EELKVPPDEDCIICMEKLSTASGYSDVTDSKAIGSLAVGHLTKCSHAFHLLCLLAMYCNGNKDGSLQCPSCKTIYGEKTGTQ
B5: MDM4 RING domain (UniProt O15151); chain MEDCQNLLKPCSLCEKRPRDGNIIHGRTGHLVTCFHCARRLKKAGASCPICKKEIQLVIKVF
B6: RBCK1 RING domain (UniProt Q9BYM8); chain SLVLNTEPAECPVCYSVLAPGEAVVLRECLHTFCRECLQGTIRNSQEAEVSCPFIDNTYSCSGKLLEREIK
B7: TRIM62 RING domain (UniProt Q9BVG3); chain MACSLKDELLCSICLSIYQDPVSLGCEHYFCRRCITEHWVRQEAQGARDCPECRRTFAEPALAP
B8: SYTL4 RING domain (UniProt Q96C24); chain RGSQHYSDRTCARCQESLGRLSPKTNTCRGCNHLVCRDCRIQESNGTWRCKVCAKEIELKKAT
B9: RNF19A RING domain (UniProt Q9NV58); chain ISKQIGDFIECPLCLLRHSKDRFPDIMTCHHRSCVDCLRQYLRIEISESRVNISCPECTERFNPHDIR
B10: UBOX5 RING domain (UniProt O94941); chain EQPGSILGPECASCKRVFSPYFKKEPVYQLPCGHLLCRPCLGEKQRSLPMTCTACQRPVASQDVLR
B11: RNF133 RING domain (UniProt Q8WVZ7); chain DEEINPNGDSCVICFERYKPNDIVRILTCKHFFHKNCIDPWILPHGTCPICKCDILKVLGIQ
B12: RNF121 RING domain (UniProt Q9H920); chain MPTKHLSDSVCAVCGQQIFVDVSEEGIIENTYRLSCNHVFHEFCIRGWCIVGKKQTCPYCKEKVDLKRMFS
B1 (RFWD3 RING domain): 0
B2 (DZIP3 RING domain): 0
B3 (SH3RF1 RING domain): 0
B4 (DTX2 RING domain): 0
AMYLQENGIDCPKCKFSYALARGGCMHFHCTQCRHQFCSGCYNAFYAKNKC (RNF31 RING domain (UniProt Q96EP0)): 0
B5 (MDM4 RING domain): 0
YQNEVDDDLVCHICLQPLLQPLDTPCGHTFCYKCLRNFLQEKDFCPLDRKRLHFKLCKK (LNX2 RING domain (UniProt Q8N448)): 0
B6 (RBCK1 RING domain): 0
B7 (TRIM62 RING domain): 0
B8 (SYTL4 RING domain): 0
B9 (RNF19A RING domain): 0
GSRLQEINDVCAICYHEFTTSARITPCNHYFHALCLRKWLYIQDTCPMCHQKVYIEDDIK (RNF139 RING domain (UniProt Q8WU17)): 0
B10 (UBOX5 RING domain): 0
B11 (RNF133 RING domain): 0
B12 (RNF121 RING domain): 0
PEDRESLKSACVVCLSSFKSCVFLECGHVCSCTECYRALPEPKKCPICRQAITRVIPLY (MUL1 RING domain (UniProt Q969V5)): 0

Series 5
Target: Phosphate system positive regulatory protein PHO4, full length, GST-tagged (PHO4, Saccharomyces cerevisiae, UniProt P07270, residues 1-312)
Method: competition protein-binding microarray
Form: double-stranded DNA, one strand shown
Matrix: in vitro
Tested at: 2 µM
Notes: whole 60-bp probe, lowest competitor level
Together with: Cbf1 competitor, 0.05 µM
Reading: higher = stronger binding
Endpoint: fluorescence intensity
Target sequence (chain): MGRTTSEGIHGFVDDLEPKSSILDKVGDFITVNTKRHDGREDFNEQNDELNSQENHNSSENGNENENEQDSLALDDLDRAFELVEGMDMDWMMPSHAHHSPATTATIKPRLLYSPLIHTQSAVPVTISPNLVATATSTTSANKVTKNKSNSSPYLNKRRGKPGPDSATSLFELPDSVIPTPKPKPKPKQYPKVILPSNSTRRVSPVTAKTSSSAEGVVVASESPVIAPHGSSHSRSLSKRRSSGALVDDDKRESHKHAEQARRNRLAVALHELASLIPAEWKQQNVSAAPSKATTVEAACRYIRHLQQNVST
GTCTTGTCTCATTGGCTCGTGGGTGTCCCCACTTCAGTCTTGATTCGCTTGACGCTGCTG: 11600 a.u.
TCCAGGTTGCCCTGCAAGGTGACAGGGTTCTTGTTTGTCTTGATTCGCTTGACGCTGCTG: 3600 a.u.
TTCCTGCTCTCGTTCCACGTTGTCATCCCACCCATTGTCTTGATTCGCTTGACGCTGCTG: 11800 a.u.
CCTTGGCTGCCAAGGCCCGTGGTGAGCCATTGACCTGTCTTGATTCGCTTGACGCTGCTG: 7260 a.u.
CTTTCCCGATCTTTTCACGTGGTTTTAGCACATTTGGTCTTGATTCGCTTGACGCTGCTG: 11800 a.u.
GTCTTGTCTCATTGTCACCGTACTTTCCCCACTTCAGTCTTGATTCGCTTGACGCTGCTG: 4490 a.u.
AAAGCGGTAATTTCTCACGTGTTTTCACATATCTATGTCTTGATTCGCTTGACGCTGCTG: 13100 a.u.
CGGGGTTAAGTTTGTCACCCGACTTGCTTGCAGCAGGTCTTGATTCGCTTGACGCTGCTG: 3240 a.u.
GTCCGATATGCCCGGAACGTGCTTTCCATTGGTGCAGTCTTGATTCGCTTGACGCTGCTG: 14100 a.u.
TGCGCAACAACTTGAAAGGTGGGTGTATGTCTAGAAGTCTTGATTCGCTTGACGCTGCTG: 4580 a.u.
TTCTGCAGATAGTCTCTCGTGACTCGAATCTCGGAAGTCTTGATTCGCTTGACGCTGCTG: 4070 a.u.
CTTTCCCGATCTTGCGCGGTGGGTGTAGCACATTTGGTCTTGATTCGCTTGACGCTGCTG: 4880 a.u.
GCCACTCTAGACCGTCACATGTCCAATGTTTCTTTTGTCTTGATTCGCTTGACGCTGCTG: 8800 a.u.
GTCTTGTCTCATTGGCACGTGGGTGTCCCCACTTCAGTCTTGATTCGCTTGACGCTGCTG: 19100 a.u.
CGGATATTCTTTCTTCACGTGCATCTACTGCTTTTTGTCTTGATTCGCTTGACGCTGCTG: 14300 a.u.
TTATATTGTGTGAAGCACATGCCACACTTTCCAAAAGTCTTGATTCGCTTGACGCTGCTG: 10900 a.u.
CATCAATCTTTCCATCACGCAATGGCTTGTTGTTTTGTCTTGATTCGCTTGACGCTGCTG: 6370 a.u.
CAAAGCCCTATTCGCGTCGTGACGGACTGAATGTCAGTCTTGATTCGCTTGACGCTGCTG: 4530 a.u.
AACTGTACCGGCTGGCACGTCGTACACAGAATCAGAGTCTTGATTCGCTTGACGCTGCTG: 5440 a.u.
CGTCCTAGCGATTGATGAGTGGGTGCCATGAGGAAGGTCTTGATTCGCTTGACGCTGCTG: 6110 a.u.
TTGTTTTTTGTGTGGCATGTGCAGCGAGCGATGAGTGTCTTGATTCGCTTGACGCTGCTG: 12100 a.u.
TGGTATATTGCCGTTTTCTGTATCAGTTGCTGATATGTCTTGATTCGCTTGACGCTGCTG: 3250 a.u.
CATTAGCGTCTCTTTCACGTGCGGTCTGAGAACTACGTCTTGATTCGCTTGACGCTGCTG: 14600 a.u.
CGTCCTAGTGATTGTCACCATACTTCCATGAGGAAGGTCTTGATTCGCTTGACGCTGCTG: 4610 a.u.

Repeated from above (series 1):
T37Q: -1.1 natural log
L38C: -1.5 natural log
V35A: -1.47 natural log
L45Q: -1.5 natural log
A40N: -1.51 natural log
A29W: -1.37 natural log
K36G: -1.37 natural log
T37Y: -1.4 natural log
L38T: -1.49 natural log
S43V: -1.45 natural log
T37A: -1.28 natural log
Q41T: -1.38 natural log
V35C: -1.34 natural log
R30Y: -1.46 natural log
V35K: -1.48 natural log
